Results gathered from unrelated publications.
Each line is one published result; not all experiments were run side by side. ± gives the spread as reported.
cyp121: Mycocyclosin synthase (cyp121, Mycobacterium tuberculosis, UniProt P9WPP7)

The chains behind the UniProt entries cited, without tags or fusion partners. Residues count along the entry.
UniProt P9WPP7, whole entry: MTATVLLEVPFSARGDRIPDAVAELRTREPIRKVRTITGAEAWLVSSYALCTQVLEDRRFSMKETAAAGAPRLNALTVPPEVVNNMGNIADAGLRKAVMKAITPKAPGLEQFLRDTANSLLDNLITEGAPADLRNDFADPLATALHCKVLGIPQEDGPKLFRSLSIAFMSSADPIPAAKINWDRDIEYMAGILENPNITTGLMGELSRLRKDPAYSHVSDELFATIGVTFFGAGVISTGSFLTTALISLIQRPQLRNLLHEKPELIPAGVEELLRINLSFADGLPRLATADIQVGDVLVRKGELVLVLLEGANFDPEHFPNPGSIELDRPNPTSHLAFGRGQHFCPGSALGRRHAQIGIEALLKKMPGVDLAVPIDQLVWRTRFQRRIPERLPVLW
UniProt P21553, whole entry, looked up: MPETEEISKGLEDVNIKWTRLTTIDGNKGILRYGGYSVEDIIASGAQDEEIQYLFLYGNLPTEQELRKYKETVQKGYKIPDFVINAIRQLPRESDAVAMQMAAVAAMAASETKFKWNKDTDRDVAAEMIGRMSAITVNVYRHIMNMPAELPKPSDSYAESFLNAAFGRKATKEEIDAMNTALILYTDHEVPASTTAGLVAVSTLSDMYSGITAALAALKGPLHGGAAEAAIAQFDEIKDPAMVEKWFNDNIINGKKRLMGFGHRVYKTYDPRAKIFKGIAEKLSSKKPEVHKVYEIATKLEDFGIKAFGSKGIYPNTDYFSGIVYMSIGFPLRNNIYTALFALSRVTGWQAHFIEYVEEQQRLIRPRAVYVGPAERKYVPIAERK
UniProt O34453, whole entry I218V: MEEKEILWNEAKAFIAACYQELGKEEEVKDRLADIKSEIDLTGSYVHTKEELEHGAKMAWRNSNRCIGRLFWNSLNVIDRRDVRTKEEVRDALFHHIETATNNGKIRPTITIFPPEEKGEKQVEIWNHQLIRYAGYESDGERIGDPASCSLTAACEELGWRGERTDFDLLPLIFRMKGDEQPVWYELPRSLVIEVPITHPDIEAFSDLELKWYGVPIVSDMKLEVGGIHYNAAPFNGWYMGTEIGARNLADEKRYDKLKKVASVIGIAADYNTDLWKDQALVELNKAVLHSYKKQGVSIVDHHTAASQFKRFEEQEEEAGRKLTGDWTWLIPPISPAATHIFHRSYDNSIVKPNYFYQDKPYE
UniProt Q5HH38, whole entry: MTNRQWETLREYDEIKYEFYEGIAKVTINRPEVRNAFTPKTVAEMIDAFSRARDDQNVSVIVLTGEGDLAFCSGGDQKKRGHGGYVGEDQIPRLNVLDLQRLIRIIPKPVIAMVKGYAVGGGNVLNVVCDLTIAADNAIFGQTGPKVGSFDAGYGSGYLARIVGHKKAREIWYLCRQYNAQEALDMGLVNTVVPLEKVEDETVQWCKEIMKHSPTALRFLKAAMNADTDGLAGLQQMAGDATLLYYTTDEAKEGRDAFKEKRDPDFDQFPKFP
UniProt Q96SW2, 318-426 limits assumed: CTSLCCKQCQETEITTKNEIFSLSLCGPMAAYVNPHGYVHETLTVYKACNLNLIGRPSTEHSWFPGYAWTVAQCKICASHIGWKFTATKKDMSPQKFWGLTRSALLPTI
UniProt Q9UBZ9, 1158-1251 limits assumed: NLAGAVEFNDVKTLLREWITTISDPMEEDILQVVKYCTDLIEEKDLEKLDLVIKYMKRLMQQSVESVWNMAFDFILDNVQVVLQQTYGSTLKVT
UniProt Q9Y3Z3, whole entry: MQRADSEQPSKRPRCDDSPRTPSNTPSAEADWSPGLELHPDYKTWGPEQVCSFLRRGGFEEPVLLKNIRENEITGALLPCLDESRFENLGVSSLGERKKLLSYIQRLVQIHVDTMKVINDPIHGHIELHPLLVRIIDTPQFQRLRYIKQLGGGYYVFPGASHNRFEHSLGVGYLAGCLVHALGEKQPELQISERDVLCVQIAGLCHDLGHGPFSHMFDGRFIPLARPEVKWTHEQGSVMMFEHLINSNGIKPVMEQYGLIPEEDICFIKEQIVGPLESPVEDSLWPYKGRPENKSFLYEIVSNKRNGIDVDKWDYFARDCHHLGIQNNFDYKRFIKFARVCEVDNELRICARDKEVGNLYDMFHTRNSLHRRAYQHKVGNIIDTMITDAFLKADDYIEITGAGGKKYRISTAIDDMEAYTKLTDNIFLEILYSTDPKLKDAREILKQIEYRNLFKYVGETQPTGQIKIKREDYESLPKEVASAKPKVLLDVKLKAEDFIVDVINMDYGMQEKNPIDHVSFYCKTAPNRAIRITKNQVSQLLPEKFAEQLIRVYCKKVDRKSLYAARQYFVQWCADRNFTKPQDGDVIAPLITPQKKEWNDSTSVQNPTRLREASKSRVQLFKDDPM
UniProt P40871, whole entry: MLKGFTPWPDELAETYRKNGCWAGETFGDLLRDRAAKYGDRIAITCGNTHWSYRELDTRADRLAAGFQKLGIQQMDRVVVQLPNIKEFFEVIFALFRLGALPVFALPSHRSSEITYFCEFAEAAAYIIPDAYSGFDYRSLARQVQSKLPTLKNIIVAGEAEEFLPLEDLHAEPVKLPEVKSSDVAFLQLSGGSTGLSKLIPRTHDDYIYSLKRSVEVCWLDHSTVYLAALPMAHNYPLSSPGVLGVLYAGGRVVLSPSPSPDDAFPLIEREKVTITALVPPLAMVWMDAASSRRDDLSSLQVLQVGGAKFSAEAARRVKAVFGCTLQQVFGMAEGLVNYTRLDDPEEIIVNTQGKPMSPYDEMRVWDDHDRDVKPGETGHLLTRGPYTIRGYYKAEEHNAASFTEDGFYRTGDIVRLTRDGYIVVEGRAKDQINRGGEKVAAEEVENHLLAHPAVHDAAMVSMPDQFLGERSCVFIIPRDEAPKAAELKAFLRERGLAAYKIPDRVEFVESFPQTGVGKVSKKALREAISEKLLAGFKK
UniProt P29317, 596-900 limits assumed: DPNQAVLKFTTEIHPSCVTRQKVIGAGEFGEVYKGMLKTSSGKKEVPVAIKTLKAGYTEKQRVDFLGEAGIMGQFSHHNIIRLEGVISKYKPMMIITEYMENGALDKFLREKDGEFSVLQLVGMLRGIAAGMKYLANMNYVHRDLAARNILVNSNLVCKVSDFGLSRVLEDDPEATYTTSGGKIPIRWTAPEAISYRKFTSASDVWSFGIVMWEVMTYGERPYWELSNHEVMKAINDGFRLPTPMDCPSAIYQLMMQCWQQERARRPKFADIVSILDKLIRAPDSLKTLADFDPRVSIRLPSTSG
UniProt P40763, whole entry: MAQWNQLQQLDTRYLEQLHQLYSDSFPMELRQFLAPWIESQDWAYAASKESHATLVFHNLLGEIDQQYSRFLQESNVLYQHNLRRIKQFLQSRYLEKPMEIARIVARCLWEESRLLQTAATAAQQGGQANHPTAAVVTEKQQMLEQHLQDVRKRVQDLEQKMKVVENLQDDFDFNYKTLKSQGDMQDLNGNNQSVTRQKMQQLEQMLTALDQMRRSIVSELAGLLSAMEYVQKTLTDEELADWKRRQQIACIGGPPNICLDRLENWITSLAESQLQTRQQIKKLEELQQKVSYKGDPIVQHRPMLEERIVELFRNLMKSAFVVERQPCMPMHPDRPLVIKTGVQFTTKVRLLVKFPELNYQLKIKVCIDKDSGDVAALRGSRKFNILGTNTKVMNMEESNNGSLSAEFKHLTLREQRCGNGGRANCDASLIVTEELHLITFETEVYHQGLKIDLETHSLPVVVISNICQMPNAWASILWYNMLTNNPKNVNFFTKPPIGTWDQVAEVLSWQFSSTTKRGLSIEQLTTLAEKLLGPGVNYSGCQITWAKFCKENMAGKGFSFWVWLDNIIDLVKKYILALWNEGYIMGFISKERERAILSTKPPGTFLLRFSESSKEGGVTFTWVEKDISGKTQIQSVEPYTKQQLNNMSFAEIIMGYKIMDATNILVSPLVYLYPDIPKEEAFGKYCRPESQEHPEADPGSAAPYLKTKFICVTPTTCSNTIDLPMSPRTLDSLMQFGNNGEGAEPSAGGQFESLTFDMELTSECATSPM

With `CC(C)(COP(=O)(O)OP(=O)(O)OC[C@H]1O[C@@H](n2cnc3c(N)ncnc32)[C@H](O)[C@@H]1OP(=O)(O)O)[C@@H](O)C(=O)NCCC(=O)NCCSCC(N)=O` the Kd was 1.78 ± 0.03 µM (gltA, with oxaloacetate (Thermoplasma acidophilum, UniProt P21553); binding, CD titration; pH 8, 20 °C).
For `COc1ccc2cc(-c3ccc(F)cc3)ccc2c1Cn1ccnc1`, the Kd was 1.4 ± 0.23 µM (cyp121; binding).
`Cc1cc(N)nc(-c2ccc(CNCCc3cccc(F)c3)cc2)c1` gave a Kd of 58 ± 4 µM (Nitric oxide synthase oxygenase (Bacillus subtilis, UniProt O34453, I218V); binding, imidazole displacement; pH 7.6, with: 1 mM imidazole).
With `COC(=O)C(CC(=O)c1ccc(Cl)cc1)SCCNC(=O)CCNC(=O)[C@H](O)C(C)(C)COP(=O)(O)OP(=O)(O)OC[C@H]1O[C@@H](n2cnc3c(N)ncnc32)[C@H](O)[C@@H]1OP(=O)(O)O` (stereo partly drawn) the Kd was 2.8 ± 0.7 µM (1,4-dihydroxy-2-naphthoyl-CoA synthase (menB, Staphylococcus aureus, UniProt Q5HH38); isothermal titration calorimetry; 22 °C).
`Cc1nc2c[nH]c(/C=C/C=C/c3ccc(N(C)C)cc3)cn-2c1=O` has a Kd of 0.77 µM (Alpha-synuclein, fibrils (SNCA, Homo sapiens, UniProt P37840); binding).
For `CN1CCN(c2ccc(-c3cccc(CN4CCN(CCNC(=O)CCCCCCCNc5cccc6c5C(=O)N(C5CCC(=O)NC5=O)C6=O)CC4)c3)cc2NC(=O)c2c[nH]c(=O)cc2C(F)(F)F)CC1` (stereo not drawn), the Kd was 14.8 ± 1.3 µM (Protein cereblon, thalidomide-binding domain (CRBN, Homo sapiens, UniProt Q96SW2); binding, isothermal titration calorimetry; thalidomide-binding domain; 25 °C).
For `Nc1ccc(N=Nc2cccc(F)c2F)c(N)c1`, the Kd was 18 ± 4 µM (DNA repair protein REV1, C-terminal domain (Homo sapiens, UniProt Q9UBZ9); microscale thermophoresis; cis-trans isomer mixture, with: labelled DNA repair protein REV1 20 nM).
`Nc1nc2c(ncn2[C@H]2C[C@H](O)[C@@H](COP(=O)(O)OCCCNC(=O)c3cccc(-c4cccc(Br)c4)c3)O2)c(=O)[nH]1` gave a Kd of 5 ± 1.2 µM (Deoxynucleoside triphosphate triphosphohydrolase SAMHD1, A1 site (SAMHD1, Homo sapiens, UniProt Q9Y3Z3); binding at allosteric site A1, fluorescence anisotropy competition; 1 µM protein).
With `O=C(NS(=O)(=O)OC[C@H]1O[C@@H](n2cnc3c(NCc4ccccc4)ncnc32)[C@H](O)[C@@H]1O)c1ccccc1O` the Kd was 1.86 µM (2,3-dihydroxybenzoate-AMP ligase (dhbE, Bacillus subtilis, UniProt P40871); binding).
`Cc1cn(-c2cc(NC(=O)c3ccc(C)c(Nc4nc(-c5cccnc5)nc5c4cnn5C)c3)cc(C(F)(F)F)c2)cn1` gave a Kd of 0.033 µM (EPHA2 (Homo sapiens, UniProt P29317); binding, microscale thermophoresis; kinase domain; 25 °C, 5% DMSO).
The Kd of `CCC(CC)(c1ccc(-c2ccc(F)cc2)cc1)n1ccnc1` is reported as 2.5 ± 0.57 µM (cyp121; binding).
The Kd of `CC(C)C(C(=O)N(Cc1ccc(C2CCCCC2)cc1)c1ccc(C(=O)O)cc1)N(C)S(=O)(=O)c1c(F)c(F)c(F)c(F)c1F` (stereo not drawn) is reported as 0.324 µM (STAT3 (Homo sapiens, UniProt P40763); surface plasmon resonance; His-tagged protein immobilized).

A few entries again:
With `CC(C)(COP(=O)(O)OP(=O)(O)OC[C@H]1O[C@@H](n2cnc3c(N)ncnc32)[C@H](O)[C@@H]1OP(=O)(O)O)[C@@H](O)C(=O)NCCC(=O)NCCSCC(N)=O` the Kd was 1.78 ± 0.03 µM (gltA, with oxaloacetate (Thermoplasma acidophilum, UniProt P21553); binding, CD titration; pH 8, 20 °C).
